# Experimental data pooled from the literature.
# A part holds a random share of what one study measured. Positions count from the first letter of the parent shown.

# Set 1 — target: CCNB3, cyclin fold, Cln2 fusion (human); method: yeast growth competition, sequencing; matrix: yeast; setting: strong parent motif; baseline: not given; reading: higher = stronger binding
# Parent: BRCA2 docking peptide (human); PSIKRNLLNEFDR; partner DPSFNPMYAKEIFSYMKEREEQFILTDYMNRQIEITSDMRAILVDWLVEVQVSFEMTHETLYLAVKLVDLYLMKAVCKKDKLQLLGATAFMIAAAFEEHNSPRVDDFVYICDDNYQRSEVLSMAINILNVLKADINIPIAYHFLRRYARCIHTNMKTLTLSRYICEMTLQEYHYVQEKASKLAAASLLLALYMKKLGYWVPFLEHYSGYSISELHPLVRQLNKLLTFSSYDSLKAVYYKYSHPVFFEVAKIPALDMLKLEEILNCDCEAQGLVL
Substitution,normalised enrichment score
PSIRRNLLNEFDR [K4R],1.97
PSIKRNILNEFDR [L7I],1.07
PSIKRNHLNEFDR [L7H],-0.105
ISIKRNLLNEFDR [P1I],1.19
PSIKRNLLNEFDE [R13E],0.8
PSFKRNLLNEFDR [I3F],0.301
PSIKDNLLNEFDR [R5D],0.719
PSGKRNLLNEFDR [I3G],0.581
PSIKRNLLNHFDR [E10H],0.23
PSIKANLLNEFDR [R5A],0.218
PTIKRNLLNEFDR [S2T],1.06

# Set 2 — method: DHFR PCA, deep sequencing; matrix: yeast; added: (+)-ABA 200 µM; baseline: wild-type fitted maximum; reading: higher = stronger binding
# Target: ABI1, truncated, D143A, DHFR fusion (Arabidopsis thaliana)
# Setting: methotrexate growth selection, single substitutions
# Parent: PYL1, truncated, DHFR fusion (Arabidopsis thaliana); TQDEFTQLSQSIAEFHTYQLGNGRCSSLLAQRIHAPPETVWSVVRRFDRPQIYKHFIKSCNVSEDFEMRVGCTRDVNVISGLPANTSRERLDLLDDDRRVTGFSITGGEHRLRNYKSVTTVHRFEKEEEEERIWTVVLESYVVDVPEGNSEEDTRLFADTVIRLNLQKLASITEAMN
Substitution,relative binding score [%]
R88H,102
K126S,111
R32E,99
R49I,80.8
P36T,97.9
V137C,70
V78I,109
E4P,92.7
F47P,-4.38

# Set 3 — method: protein binding microarray; molecule type: double-stranded DNA, one strand shown; matrix: in vitro; concentration: not given; baseline: not given; reading: higher = stronger binding
# Target: Histone acetyltransferase KAT6A, winged helix 1, GST fusion (KAT6A, Homo sapiens, UniProt Q92794, residues 1-85)
# Setting: 8-mer, flanks averaged, mean of 2 arrays, mostly near background
# Target sequence (chain): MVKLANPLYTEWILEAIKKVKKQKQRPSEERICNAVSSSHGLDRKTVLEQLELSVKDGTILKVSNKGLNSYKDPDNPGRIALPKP
Strand,E-score
AACAGTCC,-0.147
ACTTTCTC,-0.0192
CAGACGTC,-0.056
CGTCACTC,-0.0321
CTAAGTTA,-0.0667
CCCCCGGG,0.345
CACGTCTG,-0.0563
ACTCATAA,-0.0765
CATACTTA,-0.132
ACTTTCTA,-0.11

# Other studies, line by line
Substance,target,assay,test system,conditions,scale,endpoint,result
"PhoQ, residues 284 288 289 292 302 303 QWGLFV","PhoP, residues 12 14 15 18 19 VQGLL (Escherichia coli, UniProt P23836)","Sort-seq, measured: YFP reporter",E. coli,"PhoQ-PhoP variant library, added: 10 µM Mg2+","baseline: high Mg2+ state, higher = stronger signaling",fold induction,3.15

# Excerpt of the above (set 3):
Strand,E-score
CAGACGTC,-0.056
CATACTTA,-0.132
CGTCACTC,-0.0321
